# Measurements pooled from the literature.
# A part holds a random share of what one study measured. Changes are numbered by the printed parent chain.

# Series 1
# Target: Histone acetyltransferase KAT6A, winged helix 1, GST fusion (KAT6A, Homo sapiens, UniProt Q92794, residues 1-85)
# Method: protein binding microarray
# Molecule type: double-stranded DNA, one strand shown
# Medium: in vitro
# Concentration: not given
# Notes: 8-mer, flanks averaged, mean of 2 arrays, mostly near background
# Reference: not given
# Reading: higher = stronger binding
# Construct (chain): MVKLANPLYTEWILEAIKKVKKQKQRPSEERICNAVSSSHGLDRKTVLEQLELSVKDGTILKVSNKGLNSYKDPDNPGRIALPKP
Strand,E-score
GGATAATA,-0.0864
GCACGATA,0.044
CTCTAAGC,0.0978
CACGCACC,0.262
CTGATTCC,-0.0669
AACAGACA,-0.142
TGGCTTAA,-0.181
AGGGCAAA,-0.0299
AACTGGCA,-0.173
ACTAAATA,-0.102
CAGTTACA,-0.0645
CCCGAGAG,0.0725
ATAGGCTA,-0.15
TCACGAAA,-0.0449
AGAGCTCA,-0.141

# Series 2
# Target: RING finger protein unkempt homolog, zinc fingers 1-6, GST-SBP tag (UNK, Homo sapiens, UniProt Q9C0B0, residues 30-357)
# Chain of UniProt Q9C0B0 (30-357, looked up): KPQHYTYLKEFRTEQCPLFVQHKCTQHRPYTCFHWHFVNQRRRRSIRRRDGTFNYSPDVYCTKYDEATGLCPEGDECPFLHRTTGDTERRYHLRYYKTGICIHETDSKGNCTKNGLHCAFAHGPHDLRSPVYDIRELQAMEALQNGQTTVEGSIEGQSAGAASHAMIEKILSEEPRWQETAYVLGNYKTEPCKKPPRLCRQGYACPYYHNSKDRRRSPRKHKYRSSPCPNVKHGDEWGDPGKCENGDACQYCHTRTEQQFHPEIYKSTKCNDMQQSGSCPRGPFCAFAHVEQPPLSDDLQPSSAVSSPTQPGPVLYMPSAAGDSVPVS
# Method: RNA Bind-n-Seq
# Molecule type: RNA
# Medium: in vitro
# Concentration: not given
# Notes: RNA with constant flanks, human and mouse sites, ends assumed
# Reference: input RNA pool
# Reading: higher = stronger binding
# Constant ends, left off below: GGGAGUUCUACAGUCCGACGAUC … CAACAGAGGAUUGAGCAUCA
Strand,bound/input enrichment
GAAAAGGAUCAUAAUGAUGCAGAAGAAGAACCUGAGGCUGGUGAUUCUGUAGGAAAUGUUCAUGAGGGGUUAACUCCAGUGGUCAUUCAGAACAGCAACAAAAAAAUAUUGCAGUGUCCU,0.145 ratio
UCGAACAAAAAUCUUUUCUGAAAGCAAAAAUACAUUAGACGAACUAAAAAAAGAAUACCAAGCAUUAGAAACCUCCGAGACAACCAAAGUCAAGACACAGUCAACCUGACUUCACAUAAC,3.07 ratio
AGAGGAGUUUGGGGGCUUGGCACCUGAAAAUUUAGACCGCAUUCUUAUUAAGUAAAGGAAGAGGUAGGGAGGCCGAGGCGGGCGGAUCAUGAAAUCAGGAGAUCCAGACCGUCCUGGCUA,0.989 ratio
AGGGCCUCCAACAGGCAAAUUCAGGGAGGAUAGGUUUCAGGGAAUAUAAAUUUAUUUAAUAUUAGUGGUCUUUAAGUAUAAACUUGAUGUAAUUGGUUUGGGAGGGGGCAGUGAUGAUGA,8.9 ratio
CAGUGGUAAAGUGAAGCAAAUUGUUCUACCAAGACCUCAUUCUUCAUGUCAUUAAGCAAUAGGUUGCAGCAAACAAGGAAGAGCUUCUUGCUUUUUAUUCUUCCAACCUUAAUUGAACAC,0.148 ratio
AUUGCAGCUAAAUACCAGUUGGAUCCUACUGCUUCUAUCUCUGCAAAGGUCAACAACUCUAGUUUAAUUGGAGUGGGCUAUACUCAGACUCUGAGGCCUGGUGUGAAGCUUACACUGUCU,0.181 ratio
GCCAUCCAGCACUGCCAUUCCCGUGGAGUUGUCCAUCGUGACAUCAAGGAUGAGAACAUCCUGAUAGACCUACGCCGUGGCUGUGCCAAACUCAUUGAUUUUGGUUCUGGUGCCCUGCUU,0.178 ratio
UUGGGGAAAUAUAUGUGUGGCUCUCCUAAGUAUUUCCAUGAAGGAAACACCCACAAUCCUGUGGUGUUCAUCUUUUGACAAAUGCAAAUACUUCCCUCAUCAGUCAGCUCCUACUGAACU,0.143 ratio

# Series 3
# Target: CCNA1, cyclin fold, Cln2 fusion (human)
# Method: yeast growth competition, sequencing
# Medium: yeast
# Notes: weak parent motif
# Reference: not given
# Reading: higher = stronger binding
# Starting sequence: CDT1 docking peptide (human); PPARRRLRLSVDE; partner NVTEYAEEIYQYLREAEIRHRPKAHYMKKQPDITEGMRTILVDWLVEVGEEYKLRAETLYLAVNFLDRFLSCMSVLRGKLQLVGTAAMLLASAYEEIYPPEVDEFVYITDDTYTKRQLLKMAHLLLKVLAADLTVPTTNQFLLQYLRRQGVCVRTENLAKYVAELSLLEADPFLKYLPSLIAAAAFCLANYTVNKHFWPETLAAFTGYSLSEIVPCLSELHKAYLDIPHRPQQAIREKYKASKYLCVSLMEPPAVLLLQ
Variant,normalised enrichment score
P1A,0.354
L7A,0.609
P2A,0.401
D12A,0.811
L9A,0.325
R4A,0.319
R5K L9F,0.706

# Mixed results
Molecule,target,assay,system,conditions,scale,quantity,value
"PhoQ, residues 284 288 289 292 302 303 NLALSC","PhoP, residues 12 14 15 18 19 GQALL (Escherichia coli, UniProt P23836)","Sort-seq, measured: YFP reporter",E. coli,"PhoQ-PhoP variant library, together with: 10 µM Mg2+","reference: high Mg2+ state, higher = stronger signaling",fold induction,1.43

# For quick reference, copied from above (series 1):
Strand,E-score
ACTAAATA,-0.102
CAGTTACA,-0.0645
CCCGAGAG,0.0725
ATAGGCTA,-0.15
